Experimental data of several laboratories.
A part holds a random share of what one study measured. Changes are numbered by the printed parent chain.

Series 1
Target: Ras GTPase-activating protein-binding protein 1, full length (G3BP1, Homo sapiens, UniProt Q13283)
Sequence of UniProt Q13283 (whole entry, looked up): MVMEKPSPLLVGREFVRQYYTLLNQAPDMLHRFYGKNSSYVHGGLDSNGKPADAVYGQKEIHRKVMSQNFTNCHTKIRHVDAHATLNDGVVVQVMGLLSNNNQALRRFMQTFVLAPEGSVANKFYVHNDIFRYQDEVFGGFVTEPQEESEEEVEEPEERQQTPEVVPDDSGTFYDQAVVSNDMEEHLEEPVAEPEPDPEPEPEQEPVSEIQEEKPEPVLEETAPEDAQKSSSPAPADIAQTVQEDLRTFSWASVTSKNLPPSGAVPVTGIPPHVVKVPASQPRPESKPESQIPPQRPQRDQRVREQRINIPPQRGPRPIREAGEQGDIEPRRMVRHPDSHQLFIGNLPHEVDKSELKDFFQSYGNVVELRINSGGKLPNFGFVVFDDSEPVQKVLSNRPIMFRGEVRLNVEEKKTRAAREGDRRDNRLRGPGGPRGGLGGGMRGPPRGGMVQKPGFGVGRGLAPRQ
Technique: RNA Bind-n-Seq
Molecule type: RNA
Matrix: in vitro
Concentration: 200 nM
Notes: whole 134-nt RNA, ends assumed
Added: 150 mM KCl
Relative to: input library
Direction: higher = stronger binding
Constant ends, left off below: GGGAGUUCUACAGUCCGACGAUC … UGGAAUUCUCGGGUGUCAAGG
Sequence	log2 enrichment
GUCCUGUGCUACACAUCGUAUGUACCGAAUCGGGGUUUGGGGAAAAAGGGGAAAGGGGAAAGUAUUAUGUUACGCCGUUCGGAUCUGCAC	0.529
GGGGAGGUGGAUUUUGUUUAUUUUUUUAGCUCAUUUCCAGGGGUGGGAAUUUUUUUUUAAUAUGUGUCAUGAAUAAAGUUGUUUUUGAAA	0.0497
UGGGAGGUGGAUUUUGUUUAUUUUUUUAGCUCAUUUCCAGGGGUGGGAAUUUUUUUUUAAUAUAUGUCAUGAAUAAAGUUGUUUUUGAAA	0.158
AGUCCUGUGCUACACAUCGUAUGUACCGAAUCAAACCCCCAAACCCAAACCCCCAAAAAAGUAUUAUGUUACGCCGUUCGGAUCUGCACU	-0.678
UCAAGUCCUGUGCUACACAUCGUAUGUACCGAAUCGGGUGGGAAAGGGAAAGGGAAAGUAUUAUGUUACGCCGUUCGGAUCUGCACUUCC	0.791
UCAAGUCCUGUGCUACACAUCGUAUGUACCGAAUCGGCCCGGCCCGGGGCCCGGGAAAGUAUUAUGUUACGCCGUUCGGAUCUGCACUUC	-0.499
ACCAUGCAGGUGGGCAUCUUUGGGAAGUGGGACAAGGGGGGGAUAGGGAGGGGGGUAACACUUUGGGAACAGGUGGUCCCAGGUCGUUUC	1.08
ACCAUGCAGGUGGGCAUCUUUGGGAAGUGGGGCAGGGGGGGGAUAGGGAGGGGGGUAACACUUUGGGAACAGGUGGUCCCAGGUCGUUUC	1.22
GUCCUGUGCUACACAUCGUAUGUACCGAAUCGGUUUUUGGUUUUUUUGGUUUUUUUGGAAAGUAUUAUGUUACGCCGUUCGGAUCUGCAC	-1.23
AGUCCUGUGCUACACAUCGUAUGUACCGAAUCGGAAAAAAAGGUUUGGUUUUUUUGGAAAGUAUUAUGUUACGCCGUUCGGAUCUGCACU	-1.47
GUCCUGUGCUACACAUCGUAUGUACCGAAUCAAACCCCCAAAUUUAAAUUUUUUUAAAAAAGUAUUAUGUUACGCCGUUCGGAUCUGCAC	0.123
UGGGAGGUGGAUUUUGUUUAUUUUUUUAGCUCAUUUUCAGGGGUGGGAAUUUUUUUUUAAUAUGUGUCAUGAAUAAAGUUGUUUUUGAAA	-0.0895
UCAAGUCCUGUGCUACACAUCGUAUGUACCGAAUCGGGAAAGGGUGGGUUUGGGAAAGUAUUAUGUUACGCCGUUCGGAUCUGCACUUCC	1.04
ACCAUGCAGGUGGACAUCUUUGGGAAGUGGGGCAAGGGGGGGAUAGGGAGGGGGGUAACACUUUGGGAACAGGUGGUCCCAGGUCGUUUC	1.17

Series 2
Target: CCNE1, cyclin fold, Cln2 fusion (human)
Technique: yeast growth competition, sequencing
Matrix: yeast
Notes: weak parent motif
Relative to: not given
Direction: higher = stronger binding
Parent: SAMHD1 docking peptide (human); ASKSRVQLFKDDP
Change	normalised enrichment score
K3R	0.0823
V6T	0.0222
K3D	0.0383
K10G	0.121
L8K	-0.124
S4P	-0.0983
D11C	0.106
Q7W	0.563
K10P	-0.0749
R5D	-0.0389
F9L	0.268
S4Y	0.446
F9D	-0.0374

Series 3
Target: RNA binding protein fox-1 homolog 2, RRM domain, GST-SBP tag (RBFOX2, Homo sapiens, UniProt O43251-10, residues 100-194)
Technique: RNA Bind-n-Seq
Molecule type: RNA
Matrix: in vitro
Concentration: 365 nM
Notes: natural RNA segment, single round, ends assumed
Relative to: no-protein control
Direction: higher = stronger binding
Constant ends, left off below: GGGAGUUCUACAGUCCGACGAUC … UGGAAUUCUCGGGUGCCAA
Residues (chain): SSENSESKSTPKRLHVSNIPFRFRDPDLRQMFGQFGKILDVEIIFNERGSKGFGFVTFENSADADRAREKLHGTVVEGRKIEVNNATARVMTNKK
Sequence	RBNS enrichment (R)
CAUGGCCACUUCAAAGUGAAGCCAGCAAAGUGAUAAUACUUUAUCAUUUAGUAUUAUCAUAAAGUAUUAAUACUUUGUCAUAAAGUCCUCCUUGAGCCCAGGGACCAUGG	0.28
AGCUAGAGCAAUCCAGGAGACUGUUUGGUAGAUGUUCACAACUUCACCAAACUUAAAUAGCAGGAGGAGACUGGCAGGUGAGUGUGUCCAAGAAAUCCACAUUUGUGCUG	0.447
AGGACAUUUGCACUUUGCCACUCAAUGUCGUACCUCGGUUCACUGUUUGUUUUUGAAUGCCCUGUUUUCAUAGAAUCCUAUCCUCUCAGAUGGUGGAAUCUUUGGGGAAA	3.19
CUAACUUUCCUUGGGGUGGGAGCACAGCUGGACUGUGUAGCCCGGGCUUGACCCUGAGCCAUAGGGAAACUGAACUGUGGGGGCCUGUGGUUGACAGGCCUGUGAAAUCC	0.639
GGUAGUGCACACCUUGAAUCUGAGCACUAGGAAAACAGGCAGGUGGAUUUUUGAGUUCAAGACCAGAGUGGUCUACAGAGUGAGUUCUACAACAGCCAGGGCUACAUAGA	0.481
GAACGAAUUGAUGUGUAACUGUAUGCAGACUGGUUGUAGUGGAACAAAUCUGAUAACUAUGCAGGUUUAAAUUUUCUUAUCUGAUUUUGGUAAGUAUUCCUUAGGUUUUU	1.86
GGUUGGUUCCUCAUCCUCCACCCUGACCUUUCCUCUGGCCUGUUCAAGGCCUGGUAAAGUCAGGCUCCUGGGAGUGGCAUUUCCUGUUUGACCUCUACCCAUCUCCCAGU	0.231
GUUAGUGGCUGCUGGCGUUUUGGCCCUUGGUGUUUCUGGAGCCUCCAGGGAUCUAGGGGAGCCUGGGCUGCGUGCAUGUCGAUAAGCAGAGCUGUUCUUGGGGAGAAGGA	4.72
AGUUGUUUUUGUGUGGAAUCUUGUCUUUCCGUAUAAGUUGUAAGCUCCUUGAGAGCAGGAUCCAUGUCAUUCCUUUAUUUUUAUAAAUUAUUCCCCCUAUCAUUCCUUUA	0.678
UGGAGGGGGCAGAAGAAAGAAAUAAACCUCAUCCUAUAUUUUACAAAGCAUGUGAAUUCUGGCAUUAGCUCUCAUAGGAGACCCAUGUGCUUCCUUGCUCAGUGCAAAAC	1.57
AAACCUAAUUAACUAAAGCAUUUAAGGCACUAUUUAUUUUAGAAUCAUGCUUUUGAAGAGCAUCAGUGAUUACUUAGGGUGUAAUAUGUAAAGAUCAGACAUCUCCAAAA	0.606
UGGUCAAUGUAGAUUUCAAGUUGAAAGGCAGUCCCUUUAGUUGGGGGCUGUCCAGAGCUGCAGCAGGGCUUUGCACGGAAGGGGUGGCCCUGUUAGAGUUGCUUCUCCUC	1.67

Series 4
Target: ABI1, truncated, D143A, DHFR fusion (Arabidopsis thaliana)
Technique: DHFR PCA, deep sequencing
Matrix: yeast
Notes: methotrexate growth selection, single substitutions
Added: (+)-ABA 1.4 µM
Relative to: wild-type fitted maximum
Direction: higher = stronger binding
Parent: PYL1, truncated, DHFR fusion (Arabidopsis thaliana); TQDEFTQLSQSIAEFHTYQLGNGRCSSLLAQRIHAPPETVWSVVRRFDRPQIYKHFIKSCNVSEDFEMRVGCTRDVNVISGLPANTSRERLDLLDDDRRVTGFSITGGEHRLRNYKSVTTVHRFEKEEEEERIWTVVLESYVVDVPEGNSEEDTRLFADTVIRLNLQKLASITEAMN
Change	relative binding score
T6F	32.5%
Q2M	64.3%
T119R	-2.35%
A35P	-42.3%
G71E	-0.931%
S63N	50.8%
C25A	51.9%
I133F	43.6%
F5I	37.5%
D65I	-6.29%

Series 5
Target: Prothrombin, mature alpha-thrombin (F2, Homo sapiens, UniProt P00734)
Technique: aptamer microarray, sandwich
Molecule type: DNA with 2'F-ANA
Matrix: in vitro
Concentration: 200 nM
Notes: whole 15-mer aptamer, many near background
Added: Cy3 exosite-II aptamer, 400 nM
Direction: higher = stronger binding
Sequence: GGTTGGTGTGGTTGG
Modification	mean fluorescence intensity [a.u.]
2'F-ANA at 2 4 7 10 12 14	81.6
2'F-ANA at 1 3 4 6 9 13 15	120
2'F-ANA at 2 4 5 7 9 11 12	116
2'F-ANA at 5 8 9 13	57.1
2'F-ANA at 1 3 4 6 7 9 11 12 14	68.7
2'F-ANA at 1 3 5 7 11 12 13 15	117
2'F-ANA at 1 2 4 5 6 7 8 9 13 14 15	49.5
2'F-ANA at 1 2 5 6 7 9 10	48.2
2'F-ANA at 2 3 5 6 7 8 12 14 15	64.3
2'F-ANA at 1 2 5 6 7 8 11 13 14 15	50.8
2'F-ANA at 3 6 7 9 12 13	1050
2'F-ANA at 3 6 8 11 13 15	843
2'F-ANA at 6 8 15	532
2'F-ANA at 2 4 5 8 10 12 15	47.4
2'F-ANA at 2 3 5 6 11 12	231
2'F-ANA at 2 4 5 6 7 10 12 15	59.1
2'F-ANA at 3 6 11 12 15	1110
2'F-ANA at 1 4 5 7 8 9 10 12	51.7

Excerpt of the above (series 1):
Sequence	log2 enrichment
AGUCCUGUGCUACACAUCGUAUGUACCGAAUCAAACCCCCAAACCCAAACCCCCAAAAAAGUAUUAUGUUACGCCGUUCGGAUCUGCACU	-0.678
UCAAGUCCUGUGCUACACAUCGUAUGUACCGAAUCGGGUGGGAAAGGGAAAGGGAAAGUAUUAUGUUACGCCGUUCGGAUCUGCACUUCC	0.791
UCAAGUCCUGUGCUACACAUCGUAUGUACCGAAUCGGCCCGGCCCGGGGCCCGGGAAAGUAUUAUGUUACGCCGUUCGGAUCUGCACUUC	-0.499
ACCAUGCAGGUGGGCAUCUUUGGGAAGUGGGACAAGGGGGGGAUAGGGAGGGGGGUAACACUUUGGGAACAGGUGGUCCCAGGUCGUUUC	1.08
ACCAUGCAGGUGGGCAUCUUUGGGAAGUGGGGCAGGGGGGGGAUAGGGAGGGGGGUAACACUUUGGGAACAGGUGGUCCCAGGUCGUUUC	1.22
GUCCUGUGCUACACAUCGUAUGUACCGAAUCGGUUUUUGGUUUUUUUGGUUUUUUUGGAAAGUAUUAUGUUACGCCGUUCGGAUCUGCAC	-1.23
AGUCCUGUGCUACACAUCGUAUGUACCGAAUCGGAAAAAAAGGUUUGGUUUUUUUGGAAAGUAUUAUGUUACGCCGUUCGGAUCUGCACU	-1.47
GUCCUGUGCUACACAUCGUAUGUACCGAAUCAAACCCCCAAAUUUAAAUUUUUUUAAAAAAGUAUUAUGUUACGCCGUUCGGAUCUGCAC	0.123
